# Measured values from different studies.
# Every numbered part comes from another study and shows a few of its results, in no order.

# Series 1
# Target: Histone acetyltransferase KAT6A, winged helix 2, GST fusion (KAT6A, Homo sapiens, UniProt Q92794, residues 85-181)
# Technique: protein binding microarray
# Molecule type: double-stranded DNA, one strand shown
# Sample: in vitro
# Tested at: not given
# Notes: 8-mer, flanks averaged, mean of 2 arrays, mostly near background
# Baseline: not given
# Direction: higher = stronger binding
# Target sequence (chain): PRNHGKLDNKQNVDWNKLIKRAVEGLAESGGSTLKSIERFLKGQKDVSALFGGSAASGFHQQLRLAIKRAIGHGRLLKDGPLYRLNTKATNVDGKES
Strand,E-score
ACGGTGAA,-0.0147
ATTGTGTC,-0.102
CTTACGTA,-0.262
GGACCAGA,-0.0261
CAGGACAA,0.0933
GCGCAGCC,0.28
ATGAGGGC,-0.197
CTCAAGAG,-0.11

# Series 2
# Target: Interferon regulatory factor 7, full length, phosphomimetic (IRF7, Homo sapiens, UniProt Q92985, residues 1-503, S471D/S472D/S475D/S476D/S477D/S483D/S484D/S487D)
# Sequence of UniProt Q92985 (whole entry, unmodified, looked up): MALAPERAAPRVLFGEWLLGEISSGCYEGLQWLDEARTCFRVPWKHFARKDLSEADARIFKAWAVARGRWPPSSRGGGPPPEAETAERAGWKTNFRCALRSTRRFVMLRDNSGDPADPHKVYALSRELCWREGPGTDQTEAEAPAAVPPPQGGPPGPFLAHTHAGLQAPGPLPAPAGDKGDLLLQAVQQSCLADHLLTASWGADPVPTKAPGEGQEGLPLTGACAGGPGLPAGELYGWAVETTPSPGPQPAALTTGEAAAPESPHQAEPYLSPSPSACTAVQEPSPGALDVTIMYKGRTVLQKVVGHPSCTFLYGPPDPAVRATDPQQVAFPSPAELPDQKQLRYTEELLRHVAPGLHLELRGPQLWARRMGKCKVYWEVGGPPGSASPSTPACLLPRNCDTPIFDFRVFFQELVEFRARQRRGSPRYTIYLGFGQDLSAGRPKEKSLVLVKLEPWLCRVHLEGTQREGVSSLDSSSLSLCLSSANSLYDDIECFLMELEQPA
# Technique: protein-binding microarray
# Molecule type: double-stranded DNA, one strand shown
# Sample: in vitro
# Tested at: 2200 nM top
# Notes: 60-bp whole probe
# Together with: salmon DNA 0.4 mg/ml
# Baseline: random background probes
# Direction: higher = stronger binding
# All sequences stand within: GCCTAGCAC … GTCTTGATTCGCTTGACGCTGCTG
Strand,fitted relative affinity
TCAGTGATAGCTCTGGTACTGTGCTAG,-0.2 z-score
TCAAACCCCATTCTCAGACTGTGCTAG,0.853 z-score
TTGGGTATCGGGACTGGGTTAGTGCTA,-0.202 z-score
TTACATATCGGGACTGGATTAGTGCTA,0.521 z-score
GATGGTTTCGGACTGGGGACGTGCTAG,3.67 z-score
AACCACATAGGAAGAACAACGTGCTAG,-0.319 z-score
TCATGTCTGGGCATTTTTACTGTGCTA,-0.202 z-score
GACGGACGGCTTATCCTGACGTGCTAG,-0.33 z-score

# Series 3
# Target: RING finger protein unkempt homolog, zinc fingers 1-6, GST-SBP tag (UNK, Homo sapiens, UniProt Q9C0B0, residues 30-357)
# Sequence of UniProt Q9C0B0 (30-357, looked up): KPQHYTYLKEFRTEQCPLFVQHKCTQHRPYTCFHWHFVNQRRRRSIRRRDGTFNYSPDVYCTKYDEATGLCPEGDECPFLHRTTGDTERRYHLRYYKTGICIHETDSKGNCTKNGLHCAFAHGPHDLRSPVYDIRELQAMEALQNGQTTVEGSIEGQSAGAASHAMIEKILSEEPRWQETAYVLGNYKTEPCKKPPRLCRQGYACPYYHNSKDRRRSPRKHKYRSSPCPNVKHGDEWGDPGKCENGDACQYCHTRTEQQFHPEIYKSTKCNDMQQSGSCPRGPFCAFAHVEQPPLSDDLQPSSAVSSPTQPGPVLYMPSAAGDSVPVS
# Technique: RNA Bind-n-Seq
# Molecule type: RNA
# Sample: in vitro
# Tested at: not given
# Notes: RNA with constant flanks, ends assumed
# Baseline: input RNA pool
# Direction: higher = stronger binding
# All sequences stand within: GGGAGUUCUACAGUCCGACGAUC … CAACAGAGGAUUGAGCAUCA
Strand,bound/input enrichment [ratio]
UAUAGUGUAAUAUAUAUAUAAUAGCUCUAAUUAUAAAUACACUUUUACUCUGGAAAAAGCACCGACAUUGACAUAAGAGACAUUUAAAAACCAUUAUUUUCUCAUCUGUAAAAUGGAGAG,1.42
UGAAUUUUCAAUGUUUAAUUGACAUGGAUCGGAUCUUAGCAUGGUCUUUUCUGUGACUGCCCGCACUGUAUUGUAAUUUUUCCAUUUUAAGCCUUUUCAUUGCACCUCCAGCCCCUCUGC,1.45
AUUGUCCCCUGGUGAGGGGAGCAGGGGAGAGAAAAUGGUAGCCAUUUUUACAUUGUUUUGUACCGUAUUUAUUGAUUCAGGAAACAAACACAAAAUUCUGAAUAAAAUUACUUGGAAACU,0.543
AUAUUAAACUGGUAUUUUCAAACAAUAGGAAACUUUUUUUUUUUUUUUUUUUUUUUACAGUUCCGUGUAUCUGGUUUCUACAUGGAAGACUAAACUCAUGCUUAUUGCUAAAUGUGGUCU,29.3
UUACAUCUCAAUGAAGCAAGGGACUAUGAAGUGUCAGAUAGUGCCCCUCAUCUUGAGGGCCCCGCAGAAUUUCAAGAGAAUGUAAGGAAGACCAACAAUUUUUCAGCUUUUCUUGCCAAU,0.163
GGCGCGCGGAGGGGAAAUGGCUGCCGAAAACAAGCCGGAAGAUGAUCAUGGGAACAGCAACCGCCGUCAUGUAAAAAUCUUUUUACCGAAAAAGCUGCUUGAAUGUCUGCCGAAAUGUUC,0.129
GUUAUCAAGUUCGAUACAGAGGAGGAGGCUAUAGCAAUCGCUAACGCAGCUGAUGUUGGGUCCGCAGGUUAUUUUUACUCUCAAGACCCAGCCCAGAUCUGGAGAGUGGCAGAGCAGCUG,0.217
GUUACUAUUUCUACAUGUUGUCCAUGAUGUGACUUUCGUAAACCUUCAAAAUUAUUUGGGCACCGUGCUCUAUGUUUAAUAAAGGUUUUUAUAGAUGUUUUAUUCCAUAUGUCUUCACAA,0.193

# Series 4
# Target: Replicase polyprotein 1ab, nsp13 helicase (rep, Severe acute respiratory syndrome coronavirus 2, UniProt P0DTD1)
# Action: inhibitor
# Tested at: 20 µM
SMILES,inhibition
Oc1ccc(Cl)cc1,2.96%
CCC1(c2ccccc2)C(=O)NCNC1=O,3.32%
N#CN1CCCC1,3.47%
CN([C@@H](Cc1ccc(OS(=O)(=O)c2cccc3cnccc23)cc1)C(=O)N1CCN(c2ccccc2)CC1)S(=O)(=O)c1cccc2cnccc12,0.83%
CNC(=S)C1(c2ccccn2)CCCS1 (stereo not drawn),1.24%
C[C@H](N)[C@H](O)c1cccc(O)c1,-7.4%
c1ccc(C2CNCc3ccccc32)cc1 (stereo not drawn),4.66%
Cc1noc(NS(=O)(=O)c2cccc3c(N(C)C)cccc23)c1C,2.73%
CC(C)C[C@H](NC(=O)[C@H](Cc1ccccc1)NC(=O)c1cnccn1)B(O)O,8.37%
NCC1(CC(=O)O)CCCCC1,2.62%
O=C1NCCNC1c1cccs1 (stereo not drawn),-1.71%
CCCC[C@H](C)C[C@H](O)/C=C/[C@H]1[C@H](O)CC(=O)[C@@H]1CCCC/C=C/C(=O)O,0.08%
CC1(C)CCC(C)(C)c2cc(C3(c4ccc5cc(C(=O)O)ccc5c4)SCCS3)ccc21,4.26%
CCN(CC)CC1CCCCN1CC(=O)N1c2ccccc2C(=O)Nc2cccnc21 (stereo not drawn),5.37%
O=C(/C=C/c1ccc(O)c(O)c1)O[C@H](Cc1ccc(O)c(O)c1)C(=O)O,17.6%
CCOC(=O)n1ccn(C)c1=S,7.47%
c1ccc2c(Cc3c[nH]c4ccccc34)c[nH]c2c1,1.92%
COc1ccc(-c2cc(C(F)F)nn2-c2ccc(S(N)(=O)=O)cc2)cc1F,4.04%
CC(=O)Oc1cc2c(s1)CCN(C(C(=O)C1CC1)c1ccccc1F)C2 (stereo not drawn),7.03%
Nc1nncs1,11.7%
COC(=O)CCC(=O)CN,-0.81%
c1nc2c(NC3CCCCC3)nc(Nc3ccc(N4CCOCC4)cc3)nc2[nH]1,10.6%
Nc1ccc(C(=O)O)cc1,-6.27%
C[C@H](N[C@@H](CCc1ccccc1)C(=O)O)C(=O)N1CCC[C@H]1C(=O)O,-2.29%
Nc1nc(=O)n([C@@H]2O[C@H](CO)[C@@H](O)[C@@H]2F)cc1I,-1.01%

# Series 5
# Organism: Vesicular stomatitis virus
# Effect on: pseudovirus infection
# Technique: FDA-approved drug library screen
# Tested at: concentration not given
# Notes: SARS-CoV-2 spike pseudotype
# Baseline: vehicle
SMILES,GFP-positive cells [%]
O=C(O)C(O)C(O)C(=O)O.c1cnc2cc3c(cc2n1)[C@@H]1CNC[C@H]3C1,81.7
CCO.C[C@H]1c2cccc(O)c2C(O)=C2C(=O)[C@]3(O)C(O)=C(C(N)=O)C(=O)[C@@H](N(C)C)[C@@H]3[C@@H](O)[C@@H]21.C[C@H]1c2cccc(O)c2C(O)=C2C(=O)[C@]3(O)C(O)=C(C(N)=O)C(=O)[C@@H](N(C)C)[C@@H]3[C@@H](O)[C@@H]21.Cl.Cl.O,88.2
CN[C@H]1C(=O)N[C@@H]2Cc3ccc(cc3)Oc3cc4cc(c3O[C@@H]3O[C@H](C(=O)O)[C@@H](O)[C@H](O)[C@H]3NC(=O)CCCCCCCCC(C)C)Oc3ccc(cc3Cl)[C@@H](O)[C@@H]3NC(=O)[C@H](NC(=O)[C@@H]4NC(=O)[C@@H](NC2=O)c2cc(cc(O)c2Cl)Oc2cc1ccc2O)c1ccc(O)c(c1)-c1c(O[C@H]2O[C@H](CO)[C@@H](O)[C@H](O)[C@@H]2O)cc(O)cc1[C@@H](C(=O)O)NC3=O,27.5
COc1ccc2[n-]c([S@@+]([O-])Cc3ncc(C)c(OC)c3C)nc2c1.[Na+],93.2

# Mixed results
SMILES,target,test,setting,endpoint,result
NC(Cc1cc(O)c(O)cc1O)C(=O)O (stereo not drawn),"Replicase polyprotein 1ab, main protease (rep, Severe acute respiratory syndrome coronavirus 2, UniProt P0DTD1)","fluorogenic substrate cleavage, inhibitor","60 min preincubation, 37 °C, together with: 1 mM DTT",IC50,> 20 µM

# For quick reference, copied from above (series 4):
SMILES,inhibition
C[C@H](N[C@@H](CCc1ccccc1)C(=O)O)C(=O)N1CCC[C@H]1C(=O)O,-2.29%
COC(=O)CCC(=O)CN,-0.81%
CC1(C)CCC(C)(C)c2cc(C3(c4ccc5cc(C(=O)O)ccc5c4)SCCS3)ccc21,4.26%
Oc1ccc(Cl)cc1,2.96%
N#CN1CCCC1,3.47%
